Measured values from different studies.
Every numbered part comes from another study and shows a few of its results, in no order.

Study 1
Target: RING finger protein unkempt homolog, zinc fingers 1-6, GST-SBP tag (UNK, Homo sapiens, UniProt Q9C0B0, residues 30-357)
UniProt Q9C0B0, sequence (30-357, looked up): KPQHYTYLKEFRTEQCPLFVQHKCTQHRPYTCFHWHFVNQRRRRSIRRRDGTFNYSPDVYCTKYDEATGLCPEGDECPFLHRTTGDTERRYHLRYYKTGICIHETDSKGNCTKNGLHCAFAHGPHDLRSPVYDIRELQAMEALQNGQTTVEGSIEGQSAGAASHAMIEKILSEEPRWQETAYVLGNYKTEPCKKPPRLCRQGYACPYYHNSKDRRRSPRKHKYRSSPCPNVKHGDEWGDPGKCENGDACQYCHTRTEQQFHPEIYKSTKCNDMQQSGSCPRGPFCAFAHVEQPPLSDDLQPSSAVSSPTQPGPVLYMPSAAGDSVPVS
Method: RNA Bind-n-Seq
Molecule type: RNA
Medium: in vitro
Concentration: not given
Notes: RNA with constant flanks, human and mouse sites, ends assumed
Reference: input RNA pool
Direction: higher = stronger binding
For `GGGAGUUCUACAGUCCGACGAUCGAGGGUUGUGAUGUUUGGGGCUGGGAAUGUUUUUGGUAGAAUAAUGGUACAGCUUUUGGCUAGUUUCCUUGUCAAUUGCCAGUGCUGGGAGAAAGAAAUCCCAUGGAAACACAUACCAGUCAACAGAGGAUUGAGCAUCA`, the bound/input enrichment was 0.838 ratio.
`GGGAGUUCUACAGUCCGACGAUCAUCGCUCAAGAGUACUAUUUAGAACUGAAGGAUGUAAAUUCCCUUCUCAAAUAUUUUGUUACUUUUGAAGUCAAAAUCUUACCUCCAGAAGACAGGAAAGCAAUACAAUCAAAAUGAAGACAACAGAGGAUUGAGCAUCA` has a bound/input enrichment of 0.186 ratio.
With `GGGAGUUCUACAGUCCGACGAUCGUUUUUAACGAUGGCAGUUCCAGGGAACUAAUGAACCUCACUGGAACAAUCCCUGUGCCUUAUAGAGGUAAUACAUACAAUAUUCCAAUAUGCCUAUGGCUACUGGACACAUACCCAUAUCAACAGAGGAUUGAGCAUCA` the bound/input enrichment was 0.148 ratio.
`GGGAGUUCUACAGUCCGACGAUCUGGCAGAUAUUCAAAACGUCAGCAACCAAAGGCACCGGCCUUGAUGAGGCAAUGGAAUGGUUAGUUGAAACAUUAAAAAGCAGACAGUAAUUCAGUCCAUUCUUCUCCCCUGAAAUGAAGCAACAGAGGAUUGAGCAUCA` has a bound/input enrichment of 0.232 ratio.
With `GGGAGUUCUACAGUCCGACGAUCUAUUAUUUAUUAUAGCAUUUUUGAUACCUCAUAUUCUGUUUACACAUCUUGAAAGGCGCUCAGUAGUUCUCUUACUAAACAACCACUACUCCAGAGAAUGGCAACGCUGAUUACCAGUACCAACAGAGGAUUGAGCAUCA` the bound/input enrichment was 7.94 ratio.
`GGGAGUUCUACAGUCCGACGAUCUACAAGGAGAUUAUCAUUGAAGCCACCAAGCACCGAAACUCGGAGGAGAUGUGGCGCCGCAUGAACCUGAUGACUCCUGAGGCCCUGGGCAAGCUCAAGGAGGAGAUGAAAAGUUGCGGGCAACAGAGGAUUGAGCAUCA` gave a bound/input enrichment of 0.316 ratio.
The bound/input enrichment of `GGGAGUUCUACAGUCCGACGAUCGAACAUAUUCUUAAAUAUGAGGAAUCUCUAGCUGACUCAGACAAUAAAGGUGUAAAUUCUGGAAGAUUGGUAGCUUGUAUAACCACUUUGUUCUUAUUCAGCAAAAUAAGACCCCAACUCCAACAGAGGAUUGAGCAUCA` is reported as 0.188 ratio.
`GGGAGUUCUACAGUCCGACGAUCGCUGCGCCGACGAGUCUCCCCAAGUCCUCCCGGAGCCUGUCUGGCUCACUCUGUGCCCUGUUUUCUGAUGCAGAAUCGAGAUCCGAGAUGAAGACUGAACUUUCUCCUCGGCCCGGGGCACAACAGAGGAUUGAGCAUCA` gave a bound/input enrichment of 0.164 ratio.
With `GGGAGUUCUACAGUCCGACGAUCGUACUGUCUCUUUUGGAAAAGUUCUUGAUCCCCAAUGCUUCGCAACCAGAAAGCAAAGUCUUCUAUUUGAAAAUGAAGGGUGACUACUACCGUUACUUGGCCGAGGUUGCUGCUGGUGAUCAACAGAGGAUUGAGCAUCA` the bound/input enrichment was 0.156 ratio.
`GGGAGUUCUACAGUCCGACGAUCCAUCUUUCUUGAUCAACAUCUUUUCUUGCCUCUGUCCCCUUCUCUCAUCUCUUAGCUCCCCUCCAACCUGGGGGGCAGUGGUGUGGAGAAGCCACAGGCCUGAGAUUUCAUCUGCUCUCCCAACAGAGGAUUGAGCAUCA` gave a bound/input enrichment of 0.247 ratio.
`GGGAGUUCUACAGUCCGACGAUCUACUGCUGGUAUUGUACCAGGAACAUUUUCUUUUAUUGUUACUUGCUUUUUAAACUUUGUUUAGCCACUUAAAGAAAACCUGCUCAUGGCACAACUUGCCUCAAAUCCAUUCCAAGUUGUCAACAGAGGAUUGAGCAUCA` gave a bound/input enrichment of 1.32 ratio.

Study 2
Target: Ras GTPase-activating protein-binding protein 1, C-terminal RGG region (G3BP1, Homo sapiens, UniProt Q13283)
UniProt Q13283, sequence (whole entry, looked up): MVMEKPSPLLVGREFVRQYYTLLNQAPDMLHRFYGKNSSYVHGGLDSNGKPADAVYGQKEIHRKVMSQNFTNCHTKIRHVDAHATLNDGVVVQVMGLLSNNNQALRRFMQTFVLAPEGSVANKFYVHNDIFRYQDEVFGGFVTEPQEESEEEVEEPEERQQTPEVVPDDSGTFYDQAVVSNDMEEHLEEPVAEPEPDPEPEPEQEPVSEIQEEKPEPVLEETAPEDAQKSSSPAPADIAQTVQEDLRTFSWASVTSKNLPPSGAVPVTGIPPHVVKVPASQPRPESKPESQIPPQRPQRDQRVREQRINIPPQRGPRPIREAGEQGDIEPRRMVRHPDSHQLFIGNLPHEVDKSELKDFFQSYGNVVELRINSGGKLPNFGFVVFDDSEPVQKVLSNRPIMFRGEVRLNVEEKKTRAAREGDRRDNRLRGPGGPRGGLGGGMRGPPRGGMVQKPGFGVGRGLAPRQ
Method: RNA Bind-n-Seq
Molecule type: RNA
Medium: in vitro
Concentration: 1 µM
Notes: whole 134-nt RNA, ends assumed
With: 150 mM KCl
Reference: input library
Direction: higher = stronger binding
With `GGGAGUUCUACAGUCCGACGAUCUCCUGUGCUACACAUCGUAUGUACCGAAUCGGGGAAAAAAGGGAAAAAAGGAAAAAAGGGAAAGUAUUAUGUUACGCCGUUCGGAUCUGCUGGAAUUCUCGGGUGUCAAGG` the log2 enrichment was -0.994.
`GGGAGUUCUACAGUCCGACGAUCUGGCCCUGGUGGCAUGCGGGGAGGAAGAGGUGGCCUCAUGGAUCGUGGUGGUCCCGGUGGAAUGUUCAGAGGGGGCCGUGGUGGAGACAGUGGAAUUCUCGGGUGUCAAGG` gave a log2 enrichment of 3.9.
For `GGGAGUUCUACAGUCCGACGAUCUCCUGUGCUACACAUCGUAUGUACCGAAUCGGCCCCCCGGGGCCCCCCGGCCCCCCGGGAAAGUAUUAUGUUACGCCGUUCGGAUCUGCAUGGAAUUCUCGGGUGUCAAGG`, the log2 enrichment was -1.3.
`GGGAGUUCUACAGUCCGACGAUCAAGUCCUGUGCUACACAUCGUAUGUACCGAAUCGGGAAAGGGUGGGAAAAAAAGGGAAAGUAUUAUGUUACGCCGUUCGGAUCUGCACUUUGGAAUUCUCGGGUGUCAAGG` has a log2 enrichment of 0.114.
The log2 enrichment of `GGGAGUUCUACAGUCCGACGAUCUGGCCCUGGUGGCAUGCGGGGAGGAAGCGGUGGCCUCAUGGAUCGUGGUGGUCCCGGUGGAAUGUUCAGAGGUGGCCGUGGUGGAGACAGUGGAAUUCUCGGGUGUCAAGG` is reported as 1.76.
The log2 enrichment of `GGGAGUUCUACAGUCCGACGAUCCCUGUGCUACACAUCGUAUGUACCGAAUCGGGAAAAAAAGGGUUUUUUUGGGUUUUUGGGAAAGUAUUAUGUUACGCCGUUCGGAUCUGCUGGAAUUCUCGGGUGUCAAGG` is reported as -1.85.
The log2 enrichment of `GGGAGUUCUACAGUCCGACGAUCGCAGGAAGUAGAAACAAAUGGAAAUGCUUCGGAUAGUGGCAGGGGUGGGGGUUGCUAAGGAAAGGGUGGGAUGGGAGUGGGUAAAGAGUUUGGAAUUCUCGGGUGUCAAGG` is reported as 1.7.
`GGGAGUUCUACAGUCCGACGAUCAAGUCCUGUGCUACACAUCGUAUGUACCGAAUCGGGUGGGAAAAAGGGAAAAAGGGAAAGUAUUAUGUUACGCCGUUCGGAUCUGCACUUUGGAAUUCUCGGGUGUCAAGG` gave a log2 enrichment of 0.673.
With `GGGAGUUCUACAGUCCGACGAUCUCCUGUGCUACACAUCGUAUGUACCGAAUCGGGGAAAAAAAGGGGUUUGGGGUUUGGGGAAAGUAUUAUGUUACGCCGUUCGGAUCUGCAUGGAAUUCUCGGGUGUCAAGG` the log2 enrichment was 2.78.
With `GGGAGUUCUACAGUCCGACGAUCUCCUGUGCUACACAUCGUAUGUACCGAAUCGGGUUUUUUUGGGAAAAAAAGGGUUUGGGAAAGUAUUAUGUUACGCCGUUCGGAUCUGCAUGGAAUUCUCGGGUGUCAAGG` the log2 enrichment was -0.918.

Study 3
Target: Histone acetyltransferase KAT6A, both winged helices, GST fusion (KAT6A, Homo sapiens, UniProt Q92794, residues 1-181)
Method: protein binding microarray
Molecule type: double-stranded DNA, one strand shown
Medium: in vitro
Concentration: not given
Notes: 8-mer, flanks averaged, mean of 2 arrays, mostly near background
Reference: not given
Direction: higher = stronger binding
Residues (chain): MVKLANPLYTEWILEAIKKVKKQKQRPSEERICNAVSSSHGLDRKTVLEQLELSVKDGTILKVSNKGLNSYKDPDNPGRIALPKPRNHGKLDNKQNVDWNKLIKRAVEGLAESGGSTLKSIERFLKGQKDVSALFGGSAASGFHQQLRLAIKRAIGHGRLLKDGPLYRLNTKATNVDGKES
The E-score of `ACCCCTTG` is reported as -0.281.
`GATGTCCA` has an E-score of -0.00583.
The E-score of `CAACGAGA` is reported as -0.104.
The E-score of `AATGTATC` is reported as -0.042.
For `AGTTGCTA`, the E-score was -0.0897.
With `ACGTCCGA` the E-score was 0.115.
For `ACTACCCA`, the E-score was -0.227.
With `GGAGAAAA` the E-score was -0.0915.
The E-score of `TAACTCAA` is reported as -0.122.
For `ATGTGATG`, the E-score was -0.202.
The E-score of `CCCTGCCC` is reported as -0.111.
The E-score of `GATTCTTA` is reported as -0.0822.
`ACGTGGGC` has an E-score of -0.0134.
`GACGCGGC` has an E-score of 0.305.
For `AGATTCGC`, the E-score was 0.156.
`ACACGAAG` gave an E-score of -0.0221.
`CTCTGACC` has an E-score of -0.0914.
With `AACACTGC` the E-score was 0.0382.
`CACACATA` has an E-score of -0.149.
The E-score of `AAATTTCC` is reported as -0.151.
`CACCACCA` gave an E-score of -0.203.
`GATCTTAC` has an E-score of -0.0354.
With `CACTGGGA` the E-score was -0.337.
With `AACAACTC` the E-score was -0.252.
`TGACGAAA` has an E-score of -0.119.

Study 4
Target: Prothrombin, mature alpha-thrombin (F2, Homo sapiens, UniProt P00734)
Method: aptamer microarray, sandwich
Molecule type: DNA with 2'F-ANA
Medium: in vitro
Concentration: 200 nM
Notes: whole 15-mer aptamer, many near background
With: Cy3 exosite-II aptamer, 400 nM
Direction: higher = stronger binding
Strand: GGTTGGTGTGGTTGG
For `2'F-ANA at 2 3 4 5 7 10 11 12 13`, “mean fluorescence intensity” read 52.1 a.u.
Under “mean fluorescence intensity”, `2'F-ANA at 1 2 5 6 8 10 14` is recorded as 51.5 a.u.
`2'F-ANA at 2 3 4 5 7 9 10 11 12 14`: “mean fluorescence intensity” 55.7 a.u.
Under “mean fluorescence intensity”, `2'F-ANA at 1 2 4 5 9 10 12 13 15` is recorded as 47 a.u.
`2'F-ANA at 1 4 6 8 10 12`: “mean fluorescence intensity” 56.8 a.u.
`2'F-ANA at 1 3 5 8 12 13 14 15` — result for “mean fluorescence intensity”: 83.7 a.u.
`2'F-ANA at 1 2 4 5 6 7 8 9 15` — result for “mean fluorescence intensity”: 62.9 a.u.
Under “mean fluorescence intensity”, `2'F-ANA at 1 5 6 8 11 14 15` is recorded as 45.2 a.u.
`2'F-ANA at 1 2 4 7 10 14`: “mean fluorescence intensity” 43.1 a.u.
`2'F-ANA at 2 5 6 8 9 10 14 15` — result for “mean fluorescence intensity”: 48.4 a.u.
Under “mean fluorescence intensity”, `2'F-ANA at 1 2 4 5 6 7 12 14 15` is recorded as 48.3 a.u.
Under “mean fluorescence intensity”, `2'F-ANA at 1 5 9 10 12 13` is recorded as 46.3 a.u.
`2'F-ANA at 2 4 13 14 15`: “mean fluorescence intensity” 112 a.u.
Under “mean fluorescence intensity”, `2'F-ANA at 2 4 8 11 14` is recorded as 115 a.u.
`2'F-ANA at 1 2 3 6 7 8 9 10 11 12`: “mean fluorescence intensity” 90.2 a.u.
`2'F-ANA at 1 2 3 4 6 7 9 11 12 13` — result for “mean fluorescence intensity”: 160 a.u.
`2'F-ANA at 3 7 9 12 13 15` — result for “mean fluorescence intensity”: 1200 a.u.

Excerpt of the above (study 3):
The E-score of `TAACTCAA` is reported as -0.122.
For `ATGTGATG`, the E-score was -0.202.
The E-score of `CCCTGCCC` is reported as -0.111.
The E-score of `GATTCTTA` is reported as -0.0822.
`ACGTGGGC` has an E-score of -0.0134.
`GACGCGGC` has an E-score of 0.305.
For `AGATTCGC`, the E-score was 0.156.
